Measurements pooled from the literature.
Compare with care: the assays were run in different laboratories. ± marks the error that the study gave.
Organism: Plasmodium falciparum

| Substance | assay | system | setting | IC50 |
| --- | --- | --- | --- | --- |
| CC(C)=CCC/C(C)=C/CNCCOc1cccc2ccccc12 | parasite growth | 3D7 | blood stage | > 100 µg/mL |
| O=C(NCCN1CCCC1)c1cc(-c2ccc(CN3CCOCC3)cc2)nc2ccc(F)cc12 | parasite growth | DD2 | 72 h, drug-resistant strain, blood stage | 0.0002 µM |
| FCCCCCCCCCCOCCCc1cccnc1 | anti-HRPII ELISA | W2 chloroquine-resistant | 72 h | 2.5 ± 0.1 µM |
| C/C=C(C)/C=C/C=C/[C@H](OC)[C@@H](C)[C@@H](OC)[C@@H](C)CCc1oc2c(O)c(OC)cc(OC)c2c(=O)c1C | oxygen consumption | K1 |  | 3.64 ± 1.78 µM |
| OC(c1cc(C(F)(F)F)nc2c(C(F)(F)F)cccc12)C1CCCCN1 (stereo not drawn) | parasite growth | K1, multidrug-resistant |  | 0.27 µM |
| O=C1C(O)=C([C@H]2CC[C@H](c3ccc(Cl)cc3)CC2)C(=O)c2ccccc21 | growth, hypoxanthine incorporation | D6 chloroquine-sensitive, human erythrocytes |  | 0.00034 µM |
| CC(C)=CCC1=C(O)C(=O)c2ccccc2C1=O | parasite growth | W2 | drug-resistant strain, blood stage | 93 µM |
| C[C@@H]1N[C@H](CCCCCCCCCCc2cc(CCCCCCCCCC[C@@H]3CC[C@@H](O)[C@H](C)N3)c3[n+](c2)CCC3)CC[C@H]1O.[Cl-] | parasite growth | W2 | 72 h, drug-resistant strain, blood stage | 0.27 µg/mL |
| C[C@]12CC[C@H](O)C[C@@]1(O)CC[C@@H]1[C@@H]2CC[C@]2(C)[C@@H](c3ccc(=O)oc3)CC[C@]12O | parasite growth, imaging | W2 | 48 h, drug-resistant strain, blood stage | < 2 µg/mL |
| N=C(N)NCCCCC(=O)Nc1cc(C(F)(F)F)cc(NC(=O)c2cc(C(=O)Nc3cc(C(F)(F)F)cc(NC(=O)CCCCNC(=N)N)c3O[C@@H]3CCNC3)ncn2)c1O[C@@H]1CCNC1 | parasite growth, SYBR green I | INDO or Cam3.1 R539T, human red blood cells | 72 h | < 1 µM |
| CCN(CC)CCOc1ccc2c(=O)c3cc(F)c(OC)cc3[nH]c2c1 |  | D6 |  | > 0.116 µM |
| CC(C)=CCC/C(C)=C/CNCCOc1ccccc1 | parasite growth | 3D7 | blood stage | 14 µg/mL |
| N=C(N)c1ccc(-c2ccc(-c3ccc(C(=N)N)nc3)cc2)cc1 | parasite growth | K1 |  | ≤ 0.0006 µM |
| CC(C)=CCC/C(C)=C/COCCOC1C2CC3CC(C2)CC1C3 (stereo not drawn) | parasite growth | 3D7 | blood stage | 7.9 µg/mL |
| C[C@H]1[C@@H](O)O[C@@H]2O[C@@]3(C)CC[C@H]4[C@H](C)CC[C@@H]1[C@@]24OO3 | parasite growth, SYTOX green flow cytometry | K1 chloroquine-resistant | 48 h, ring stage | 0.034 ± 0.00766 µM |
| CCN(CC)CCCC(C)Nc1ccnc2cc(Cl)ccc12 (stereo not drawn) | oxygen consumption | K1, compound-resistant |  | > 12 µM |
| carbostyril 127 | parasite proliferation, SYBR Green | 3D7 | 72 h | 0.085 µM |
| CC(C)=CCC/C(C)=C/CNCCOC1C2CC3CC(C2)CC1C3 (stereo not drawn) | parasite growth | 3D7 | blood stage | 0.79 µg/mL |
| CC1=C(O)C(=O)c2ccccc2C1=O | parasite growth | W2 | drug-resistant strain, blood stage | ≥ 266 µM |
| O=C(C=Cc1ccc[nH]1)NCC(=O)NC12CC3CC(CC(C3)C1)C2 | parasite growth | 7G8, chloroquine-resistant |  | > 2.5 µM |
| C[C@@H]1CC[C@H]2[C@@H](C)C(=O)O[C@@H]3O[C@@]4(C)CC[C@@H]1[C@]32OO4 | parasite growth, SYBR Green I | Dd2, chloroquine-resistant |  | 0.0204 ± 0.0024 µM |
| NC(=O)c1cccc(O)c1O | parasite growth | K1, multidrug-resistant |  | 40.1 µM |
| CC(CCCCCC(F)(F)F)CC1=C(O)C(=O)c2ccccc2C1=O (stereo not drawn) | parasite growth, [3H]hypoxanthine incorporation | TM91C235 multidrug-resistant, human erythrocytes |  | 0.084 µM |

| Substance | assay | system | setting | IC50 |
| --- | --- | --- | --- | --- |
| CC(C)=CC1=C(O)C(=O)c2ccccc2C1=O | parasite growth | W2 | drug-resistant strain, blood stage | 26.9 µM |
| CCCCc1ccc(/C=C2\N=C(c3ccc[nH]3)C=C2OC)[nH]1 | parasite growth | D6 | 72 h | > 1.7 µM |
| CCN(CC)CCCC(C)Nc1ccnc2cc(Cl)ccc12 (stereo not drawn) | parasite growth | K1 | drug-resistant strain, blood stage | 0.293 µM |
| CC[C@H](C)[C@H](NC(=O)[C@H]([C@@H](C)CC)N(C)C(C)=O)C(=O)N[C@H](C(=O)N[C@@H](CC(C)C)C(=O)[C@@]1(C)CO1)[C@@H](C)O | gametocyte viability, alamarBlue | 3D7 stage III-V gametocytes | 72 h | 0.00142 ± 9e-05 µM |
| O=C(Nc1ccc(C2=NCCCN2)cc1)c1ccc(C(=O)Nc2ccc(C3=NCCCN3)cc2)cc1 | parasite proliferation, SYBR Green | 3D7 | 72 h | 0.5 µM |
| O=C(O)C(Cl)Cl | parasite growth | 3D7 | 48 h, blood stage | 5390 µM |
| CCCCCCC(C)CC1=C(O)C(=O)c2c(C)cccc2C1=O (stereo not drawn) | parasite growth, [3H]hypoxanthine incorporation | W2 chloroquine-resistant, human erythrocytes |  | 0.191 µM |
| COc1ccc2cc3[n+](cc2c1OC)CCc1cc2c(cc1-3)OCO2 | parasite proliferation, SYBR Green | 3D7 | 72 h | 0.5 µM |
| CN1CCc2cccc3c2[C@@H]1Cc1ccc(O)c(O)c1-3 | parasite growth | erythrocytes | 48 h | 4 µM |
| CC(C)[C@@H]1NC(=O)[C@H](C)OC(=O)[C@@H](C(C)C)NC(=O)[C@@H](C(C)C)OC(=O)[C@H](C(C)C)NC(=O)[C@H](C)OC(=O)[C@@H](C(C)C)NC(=O)[C@@H](C(C)C)OC(=O)[C@H](C(C)C)NC(=O)[C@H](C)OC(=O)[C@@H](C(C)C)NC(=O)[C@@H](C(C)C)OC1=O | parasite proliferation, SYBR Green | 3D7 | 72 h | 0.0071 µM |
| O=CCCCCCCCCCOCCCc1cccnc1 | anti-HRPII ELISA | W2 chloroquine-resistant | 72 h | 20.3 ± 0.2 µM |
| CC(C)=CCC/C(C)=C/C[N+](C)(C)CCOC1C2CC3CC(C2)CC1C3.[I-] (stereo not drawn) | parasite growth | 3D7 | blood stage | 0.08 µg/mL |
| N=C(N)c1ncc(-c2ccc(-c3cnc(C(=N)N)nc3)cc2)cn1 | parasite growth | K1 |  | ≤ 0.0006 µM |
| CC(=O)O[C@@H]1CC=C2CCN3Cc4cc5c(cc4[C@H]1[C@@H]23)OCO5 | parasite growth | DD2 | drug-resistant strain, blood stage | 3.3 µM |
| CCCCCCC[N+](CC)(CC)CCCCc1ccc(Cl)cc1 | parasite proliferation, SYBR Green | 3D7 | 72 h | 0.524 µM |
| COc1cc(/C=C/c2ccc(/C=C/c3cc(OC)cc(=O)o3)cc2)oc(=O)c1 | parasite growth | K1 | drug-resistant strain, blood stage | < 10 µM |
| CCCCOc1ccc(CC(=O)NO)cc1 | parasite proliferation, SYBR Green | 3D7 | 72 h | 3 µM |
| CC(C)=CCC/C(C)=C/CNCCO[C@@H]1C[C@@H]2CC[C@@]1(C)C2(C)C | parasite growth | 3D7 | blood stage | 2 µg/mL |
| CC[C@@H](C(=O)[C@@H](C)[C@@H](O)[C@H](C)CCc1ccc(C)c(O)c1C(=O)O)[C@H]1O[C@](CC)([C@H]2CC[C@](O)(CC)[C@H](C)O2)C[C@@H]1C | parasite proliferation, SYBR Green | 3D7 | 72 h | 0.2 µM |
| CO/C(=C/C(N)=O)[C@H](C)[C@H](/C=C/c1csc(-c2csc([C@@H](C)/C=C/C=C/C(C)C)n2)n1)OC | oxygen consumption | K1 |  | 0.41 ± 0.28 µM |
| COc1ccc(C[C@H]2NC[C@H](O)[C@H]2OC(C)=O)cc1 | parasite proliferation, SYBR Green | 3D7 | 72 h | 0.02 µM |
| CCCCCCC(C)CC1=C(O)C(=O)c2ccccc2C1=O (stereo not drawn) | parasite growth, [3H]hypoxanthine incorporation | D6 chloroquine-sensitive, human erythrocytes |  | 0.063 µM |
